Measurements pooled from the literature.
Protocols differ between the studies behind these lines.

CCC1(CC)CC(=O)N(C2c3cc(C(=O)NC4c5ccccc5CC4O)ccc3OC2(C)COC)C(=N)N1 (stereo not shown) — unbound fraction (dog plasma): 0.135
COC1C(c2ccc(Cl)c(Cc3ccc(OC4CCOC4)cc3)c2)OC(CO)C(O)C1O (stereo not shown) — unbound fraction (rat plasma; 1 µM, 5 h): 0.068
COc1cc2cn[nH]c2nn1 — unbound fraction (rapid equilibrium dialysis; mouse plasma; 3 µM): 0.727
C=CC(=O)Nc1cc(Nc2nccc(Nc3cc(Cl)c(F)cc3C(C)(C)O)n2)c(OC)cc1N(C)CCN(C)C — unbound fraction (human plasma): 13.3%
c1ccc(-c2cc3cn[nH]c3nn2)cc1 — unbound fraction (rapid equilibrium dialysis; mouse plasma; 3 µM): 0.191
CCC1(CC)CC(=O)N(C2CCOc3ccc(C(=O)NC4CC(C)(C)Oc5ccccc54)cc32)C(=N)N1 (stereo not shown) — unbound fraction (mouse plasma): 0.055
C=CC(=O)Nc1cc(Nc2ncnc(Nc3cc(Cl)c(F)cc3C(C)(C)O)n2)c(OC)cc1N1CCC(N(C)C)C1 (stereo not shown) — unbound fraction (human plasma): 19.6%
Cc1[nH]nc2c1N=C(c1ccccc1Cl)c1cnc(N3CCOCC3)cc1N2 — unbound fraction (human plasma): 0.025
C=CC(=O)Nc1cc(Nc2ncnc(Nc3ccc(F)c(Cl)c3)n2)c(OC)cc1N(C)CCN(C)C — unbound fraction (human plasma): 14.8%
CC(=O)N1c2ccc(-c3ccc(CNC(=O)c4cn5cc(-c6cnc(N)nc6)nc(N6CCOCC6)c5n4)cc3)cc2CC[C@@H]1C — unbound fraction (rapid equilibrium dialysis; mouse plasma): 0.002

Excerpt of the above:
COc1cc2cn[nH]c2nn1 — unbound fraction (rapid equilibrium dialysis; mouse plasma; 3 µM): 0.727
